Measurements gathered from unrelated publications.
Each line is one published result; not all experiments were run side by side. Numbers after ± are the reported error.

| SMILES | assay | test system | conditions | how to read | endpoint | value |
| --- | --- | --- | --- | --- | --- | --- |
| O=c1c2ccccc2oc2ccccc12 |  | tricaprin-tricaprylin mixture | 30 °C, tricaprin fraction 0.17 |  | solubility | 0.04 mole fraction |
| CN(C)C(=N)N=C(N)N | refers to: nausea | healthy men | oral, dose not given, 8 days, treatment-emergent, crossover trial |  | subjects with adverse event | 4.5% |
| Cn1c(=O)[nH]c2ncn(C)c2c1=O |  | human, both sexes, cerebrospinal fluid |  |  | samples above LOQ | 0% |
| Cc1nc(-c2cnc(NC(C)C)n(C)c2=O)ccc1Oc1ccnc(-c2cnn(C)c2)c1 |  | Beagle dog, male, plasma | oral, 10 mg/kg, crossover study, mean |  | oral bioavailability | 27.8% |
| CNC(=O)c1cccc(-c2ccc(O[C@H]3O[C@H](CO)[C@@H](O)[C@H](O)[C@@H]3O)c(C)c2)c1 |  | male Sprague-Dawley rat, plasma | oral, 10 mg/kg, group mean |  | AUC(0-all) | 23.2 ng·h/mL |
| Cn1cc(Nc2nc(N)nc(-c3cccc(-n4ccc5cc(C6CC6)cc(F)c5c4=O)c3CO)n2)cn1 |  | healthy humans, fed | oral tablet, 50 mg twice daily (multiple dose), 14 (unit not given) | relative to: subjects | drug-related vomiting incidence | 0% |
| CCCCC[C@H](O)CC[C@@H]1[C@H]2Cc3cccc(OCC(=O)O)c3C[C@H]2C[C@H]1O | LC-MS/MS | Japanese PAH patients, plasma | inhaled, 54 µg, background ERA therapy |  | geometric mean AUC(0-inf) | 0.51 ng·h/mL |
| Cc1cc(C)c(CNC(=O)c2cc(Cl)c3c(c2C)O[C@@](C)([C@H]2CC[C@H](N(C)C)CC2)O3)c(=O)[nH]1 |  | healthy Japanese male volunteers | oral, dose not given, added: itraconazole |  | TEAE incidence | 12.5% |
| Cc1c(C(=O)Nc2ccc(N3C[C@@H](C)O[C@@H](C)C3)nc2)cccc1-c1ccc(OC(F)(F)F)cc1 | PK model | mouse | oral, 40 mg/kg/day |  | tumour-to-plasma rate constant | 0.632 h⁻¹ |
| O=C(O)CCC(=O)O.[2H]C([2H])([2H])Oc1cc(C)c2[nH]ccc2c1CN1CC[C@@H](C2CC2)C[C@H]1c1ccc(C(=O)O)cc1 | multiple ascending dose | healthy Chinese subjects | 300 mg once daily |  | subjects with TEAE Anemia | 12.5% |
| CC(C)n1c(Nc2cccnc2)nc2cnc(Nc3ccc(N4CCN(C)CC4)cc3)nc21 | refers to: urine leukocytes positive | healthy human, male | oral, dose not given, CTCAE grade 1-3 |  | subjects with TEAE | 2.4% |
| O=C(Nc1nc2cccc(-c3ccc(CN4CCS(=O)(=O)CC4)cc3)n2n1)C1CC1 | refers to: paraesthesia | human rheumatoid arthritis patients | oral, 300 mg once daily, 4 weeks, regardless of relatedness |  | treatment-emergent adverse events | 0% |
| CN(C)CCCNC(=O)/C(=C/CCCCC(=O)NO)COc1cccc2ccccc12 |  | human | iv, 187.5 mg/m2, day 1, single dose, mean |  | MRT(0-inf) | 7.12 h |
| O=C(O)CNC(=O)c1ccccc1O |  | human plasma | mean |  | plasma concentration | 995 nM |
| Nc1nc2c(nc([N+](=O)[O-])n2[C@@H]2O[C@H](CO)[C@@H](O)[C@H]2O)c(=O)[nH]1 | depurination, RP-HPLC | citrate-phosphate buffer 0.5 mM | 355 min, pH 2, 37 °C |  | nucleoside remaining fraction | 0.469 |
| NC1(C(=O)N[C@@H](CCO)c2ccc(Cl)cc2)CCN(c2nc[nH]c3nccc2-3)CC1 |  | metastatic CRPC patients | 400 mg b.i.d., any grade, treatment-related, added: enzalutamide 160 mg daily |  | incidence of SIRS | 0% |
| O=C(N[C@H](CO)[C@H](O)c1ccc([N+](=O)[O-])cc1)C(Cl)Cl | starch gel membrane permeability | Gram-negative envelope surrogate | 200 µM, 10 min, pH 7.4 |  | amount permeated | 1.13 nmol |
| CN[C@H](CC(C)C)C(=O)N[C@H]1C(=O)N[C@@H](CC(N)=O)C(=O)N[C@H]2C(=O)N[C@H]3C(=O)N[C@H](C(=O)N[C@H](C(=O)O)c4cc(O)cc(O)c4-c4cc3ccc4O)[C@H](O)c3ccc(c(Cl)c3)Oc3cc2cc(c3O[C@@H]2O[C@H](CO)[C@@H](O)[C@H](O)[C@H]2O[C@H]2C[C@](C)(N)[C@H](O)[C@H](C)O2)Oc2ccc(cc2Cl)[C@H]1O |  | C57BL/6N mouse H3, faeces | po, 0.5 mL, 20 mg/mL solution |  | elimination rate constant | 0.11 h⁻¹ |
| N#Cc1ccc2c(c1)[C@H]1CCCN(C(=O)c3ccc4[nH]cnc4c3)[C@H]1C2 |  | human, plasma | oral, 240 mg, first dose, added: background metformin |  | exposure increase | ~7% |
| CCOc1c([C@H](C)n2nc(C)c3c(N)ncnc32)cc(Cl)c(F)c1[C@@H]1CNC(=O)C1 | ECG | previously treated B-cell malignancy patients | oral, 30 mg once daily, baseline below thresholds |  | observations with HR ≤100 bpm | 97.6% |
| O=[N+]([O-])c1ccc(-c2ccc(O)cc2)c2cccnc12 |  | ICR mice male, plasma | oral, 5 mg/kg |  | MRT | 0.955 h |
| [18F]c1ccc(-c2ccc3c(c2)[nH]c2ccncc23)cn1 | ex vivo biodistribution | B6SJL mouse, normal, eyes | intravenous, 30 min |  | SUV | 3.73 ± 0.791 |
| COc1cc(/C=C/C(=O)OC2CC(O)(C(=O)O)CC(O)C2O)ccc1O (stereo not shown) |  | human plasma | median |  | plasma concentration | 14.4 nM |

| SMILES | assay | test system | conditions | how to read | endpoint | value |
| --- | --- | --- | --- | --- | --- | --- |
| Cc1ccc(Sc2ccccc2N2CCNCC2)c(C)c1 | refers to: metrorrhagia | healthy adult women | oral, 5 mg daily, 12 days |  | participants with TEAE | 0% |
| C[C@@]1(c2cc(NC(=O)c3ccc(C#N)cn3)ccc2F)C=CSC(N)=N1 |  | elderly humans, both sexes, plasma | oral, 150 mg single dose |  | dose-normalised AUC(0-inf) | 96.8 ng·h/mL |
| N#Cc1ccc2c(c1)[C@H]1CCCN(C(=O)c3ccc4[nH]cnc4c3)[C@H]1C2 |  | human | 160 mg, end of trial |  | maximum ACTH level | 9.1 pmol/L |
| O=C(COc1ccc(Cl)cc1)NC12CC(c3nnc([C@H]4C[C@@H](OC(F)(F)F)C4)o3)(C1)C2 |  | human both sexes | oral, 200 mg single dose |  | postural dizziness participants | 16.7% |
| C=CC[C@@H]1/C=C(\C)C[C@H](C)C[C@H](OC)[C@H]2O[C@@](O)(C(=O)C(=O)N3CCCC[C@H]3C(=O)O[C@H](/C(C)=C/[C@@H]3CC[C@@H](O)[C@H](OC)C3)[C@H](C)[C@@H](O)CC1=O)[C@H](C)C[C@@H]2OC |  | male Wistar Kyoto rat | intraperitoneal, 0.5 mg/kg/day, day 18 |  | plasma creatinine | 26 ± 2 µmol/L |
| COc1cc(CC(=O)O)ccc1OS(=O)(=O)O |  | human plasma | mean |  | plasma concentration | 421 nM |
| CO[C@H]1/C=C/O[C@@]2(C)Oc3c(C)c(O)c4c(O)c(c(/C=N/N5CCN(C)CC5)c(O)c4c3C2=O)NC(=O)/C(C)=C\C=C\[C@H](C)[C@H](O)[C@@H](C)[C@@H](O)[C@@H](C)[C@H](OC(C)=O)[C@@H]1C | starch gel membrane permeability | Gram-negative envelope surrogate | 200 µM, 20 min, pH 7.4 |  | amount permeated | 0.7 nmol |
| CO[C@H]1C[C@@H]2CC[C@@H](C)[C@@](O)(O2)C(=O)C(=O)N2CCCC[C@H]2C(=O)O[C@H]([C@H](C)C[C@@H]2CC[C@@H](OC(=O)NCCOCCOCCOCCOCCOCCOCCOCCOCCC(=O)N3CCc4cc(Cn5nc(-c6ccc7oc(N)nc7c6)c6c(N)ncnc65)ccc4C3)[C@H](OC)C2)C[C@@H](O)[C@H](C)/C=C(\C)[C@@H](O)[C@@H](OC)C(=O)[C@H](C)C[C@H](C)/C=C/C=C/C=C/1C |  | human patients, plasma | intravenous, 12 mg, cycle 1 day 15, weekly dosing, mean |  | Cmax | 423 nM |
| C[C@@H]1CCO[C@H]2Cn3cc(C(=O)NCc4ccc(F)cc4F)c(=O)c(O)c3C(=O)N12 |  | human paediatric patients, weight sample E to under sample F kg, plasma | oral, 50 mg film-coated tablet, steady state, geometric mean, population PK post-hoc, N 7 |  | AUC(0-24) | 48400 ng·h/mL |
| COc1cc([C@H]2Oc3cc([C@H]4Oc5cc(O)cc(O)c5C(=O)[C@@H]4O)ccc3O[C@@H]2CO)ccc1O |  | OATP1B1/1B3 humanized mice, plasma | oral gavage, 500 mg/kg silymarin, geometric mean |  | AUC(0-4h) | 0.92 µM·h |
| CSc1ccccc1C(=O)NCCn1cc(C(=O)NCc2cccc(C)n2)c(=O)c2cc3c(cc21)OC(F)(F)O3 |  | Sprague-Dawley rat, male, whole blood | intravenous, 5 mg/kg of parent compound |  | Tmax | 4.98 min |
| CCc1nc(C(N)=O)c(Nc2ccc(N3CCC(N4CCN(C)CC4)CC3)c(OC)c2)nc1NC1CCOCC1 |  | Japanese patients, plasma | oral, 40 mg, cycle 1 day 28, multiple doses, median |  | AUCtau | 3090 ng·h/mL |
| O=C(O)/C=C/c1ccc(OS(=O)(=O)O)cc1 |  | human plasma | mean |  | plasma concentration | 143 nM |
| CC(C)NCCCC[C@@H]1NC(=O)[C@H](Cc2ccc(O)cc2)NC(=O)[C@H](Cc2ccccc2)NC(=O)CC[C@H](C(=O)N[C@@H](CCCCNC(C)C)C(=O)N[C@@H](CCCCNC(=O)[C@H](CCC(=O)O)NC(=O)[C@H](CCC(=O)O)NC(=O)[C@H](CCC(=O)O)NC(=O)CN2CCN(CC(=O)O)CCN(CC(=O)O)CCN(CC(=O)O)CC2)C(N)=O)NC(=O)CNC(=O)[C@H](Cc2ccc3ccccc3c2)NC(=O)[C@@H](CCCNC(=N)N)NC1=O [gallium-68 labelled] |  | mouse with Daudi xenograft, pancreas | intravenous, 2 h |  | tissue uptake | 0.05 %ID/g |
| Cc1cc(C)c(CNC(=O)c2cc(Cl)c3c(c2C)O[C@@](C)([C@H]2CC[C@H](N(C)C)CC2)O3)c(=O)[nH]1 |  | relapsed/refractory NHL patients | oral, 200 mg once daily, onset after cycle 1 day 1 |  | grade ≥3 Lymphocyte count decreased | 4.2% |
| CC(C)(C(=O)N1CCOc2c(C#N)cncc2C1)C(F)F | refers to: eye disorders | healthy humans, both sexes | oral, 10 mg single dose |  | subjects with TEAE | 0% |
| COc1ccc2[nH]c([S+]([O-])Cc3ncc(C)c(OC)c3C)nc2c1 (stereo not shown) |  | human male | oral, dose not given, 2 h, added: fluvoxamine plus voriconazole | relative to: inhibited over baseline | R/S ratio change | 1.47 |
| C[C@H]1CN(C(=O)CC#N)[C@]12CCN(c1ncnc3[nH]ccc13)C2 |  | healthy adults, plasma | oral, 1.5 mg single dose, geometric mean |  | t1/2 | 2 h |
| CCc1cc(C(=O)NC)c2nccc(N3CCc4c(cc(Cn5ccnc5)cc4-c4cn(C)nc4C(F)(F)F)C3=O)c2c1 |  | Sprague Dawley rats | oral, 50 mg/kg once daily, 7 days |  | serum ALT activity | 63.3 ± 13.8 U/L |
| O=C(O)C=Cc1ccc(O[C@@H]2O[C@H](C(=O)O)[C@@H](O)[C@H](O)[C@H]2O)cc1 |  | human plasma | mean |  | plasma concentration | 2210 nM |
| C[C@H](NC(=O)/C(C#N)=C/c1cccc(Br)n1)c1ccccc1 | LC-MS/MS | patients, plasma | oral, 1 mg/kg, cycle 1 day 8 |  | AUC(all) | 40 ng·h/mL |
| O=C(O)c1ccccc1 |  | human plasma | median, both sexes |  | plasma concentration | 58300 nM |
| CCn1cc(C)c2c([C@H](N)c3ccc(C(F)(F)F)nc3)n(C)nc2c1=O |  | rat Sprague-Dawley male, plasma | intravenous, 1 mg/kg |  | CL | 11.8 ± 1.95 mL/min/kg |

Some of these lines once more:
| SMILES | assay | test system | conditions | how to read | endpoint | value |
| --- | --- | --- | --- | --- | --- | --- |
| CC(C)(C(=O)N1CCOc2c(C#N)cncc2C1)C(F)F | refers to: eye disorders | healthy humans, both sexes | oral, 10 mg single dose |  | subjects with TEAE | 0% |
| Cc1ccc(Sc2ccccc2N2CCNCC2)c(C)c1 | refers to: metrorrhagia | healthy adult women | oral, 5 mg daily, 12 days |  | participants with TEAE | 0% |
| O=[N+]([O-])c1ccc(-c2ccc(O)cc2)c2cccnc12 |  | ICR mice male, plasma | oral, 5 mg/kg |  | MRT | 0.955 h |
| C[C@H]1CN(C(=O)CC#N)[C@]12CCN(c1ncnc3[nH]ccc13)C2 |  | healthy adults, plasma | oral, 1.5 mg single dose, geometric mean |  | t1/2 | 2 h |
| CO[C@H]1/C=C/O[C@@]2(C)Oc3c(C)c(O)c4c(O)c(c(/C=N/N5CCN(C)CC5)c(O)c4c3C2=O)NC(=O)/C(C)=C\C=C\[C@H](C)[C@H](O)[C@@H](C)[C@@H](O)[C@@H](C)[C@H](OC(C)=O)[C@@H]1C | starch gel membrane permeability | Gram-negative envelope surrogate | 200 µM, 20 min, pH 7.4 |  | amount permeated | 0.7 nmol |
| COc1ccc2[nH]c([S+]([O-])Cc3ncc(C)c(OC)c3C)nc2c1 (stereo not shown) |  | human male | oral, dose not given, 2 h, added: fluvoxamine plus voriconazole | relative to: inhibited over baseline | R/S ratio change | 1.47 |
| NC1(C(=O)N[C@@H](CCO)c2ccc(Cl)cc2)CCN(c2nc[nH]c3nccc2-3)CC1 |  | metastatic CRPC patients | 400 mg b.i.d., any grade, treatment-related, added: enzalutamide 160 mg daily |  | incidence of SIRS | 0% |
